Results collected from several papers.
Every numbered part comes from another study and shows a few of its results, in no order. Positions count from the first letter of the parent shown.

Set 1
Target: CCNE1, cyclin fold, Cln2 fusion (human)
Technique: yeast growth competition, sequencing
Medium: yeast
Setting: strong parent motif
Baseline: not given
Direction: higher = stronger binding
Starting sequence: RBL1 docking peptide (human); GSAKRRLFGEDPP
| Substitution | normalised enrichment score |
| --- | --- |
| GSAKRRLFGEDMP [P12M] | 6.27 |
| GSAKRRWFGEDPP [L7W] | 0.614 |
| GSAKCRLFGEDPP [R5C] | 0.58 |
| GSAKARAFGEDPP [R5A L7A] | -0.303 |
| GSAKRRLFGEWPP [D11W] | 4.3 |
| GSAKKRLFGEDPP [R5K] | 3.15 |
| GSAKRRLFGEDPT [P13T] | 5.7 |
| GSAKRRAFGEDPP [L7A] | -0.235 |
| GSAKRRLFGESPP [D11S] | 6.17 |
| GSAKRRLFGEDDP [P12D] | 6.12 |

Set 2
Target: Histone acetyltransferase KAT6A, winged helix 1, GST fusion (KAT6A, Homo sapiens, UniProt Q92794, residues 1-85)
Technique: protein binding microarray
Molecule type: double-stranded DNA, one strand shown
Medium: in vitro
Concentration: not given
Setting: 8-mer, flanks averaged, mean of 2 arrays, mostly near background
Baseline: not given
Direction: higher = stronger binding
Target sequence (chain): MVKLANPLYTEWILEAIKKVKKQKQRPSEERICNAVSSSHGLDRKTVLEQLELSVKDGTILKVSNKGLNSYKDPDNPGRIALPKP
| Oligonucleotide | E-score |
| --- | --- |
| ACGCAGCT | 0.0347 |
| AGGCGAGC | -0.099 |
| TCCCCAAA | -0.195 |
| GAAGTCTA | -0.189 |
| AAGAACGG | 0.151 |
| GTATGTGA | 0.0198 |
| GAACTGTC | -0.00863 |
| AAACCGGC | 0.36 |
| AGTGGATA | -0.122 |

Set 3
Target: ABI1, truncated, D143A, DHFR fusion (Arabidopsis thaliana)
Technique: DHFR PCA, deep sequencing
Medium: yeast
Setting: methotrexate growth selection, single substitutions
Together with: (+)-ABA 58 µM
Baseline: wild-type fitted maximum
Direction: higher = stronger binding
Starting sequence: PYL1, truncated, DHFR fusion (Arabidopsis thaliana); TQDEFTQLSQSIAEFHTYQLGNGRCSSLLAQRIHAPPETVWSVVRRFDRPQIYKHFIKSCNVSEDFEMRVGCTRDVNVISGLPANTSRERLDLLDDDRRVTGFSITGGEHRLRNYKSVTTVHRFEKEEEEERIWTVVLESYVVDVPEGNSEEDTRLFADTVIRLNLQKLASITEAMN; partner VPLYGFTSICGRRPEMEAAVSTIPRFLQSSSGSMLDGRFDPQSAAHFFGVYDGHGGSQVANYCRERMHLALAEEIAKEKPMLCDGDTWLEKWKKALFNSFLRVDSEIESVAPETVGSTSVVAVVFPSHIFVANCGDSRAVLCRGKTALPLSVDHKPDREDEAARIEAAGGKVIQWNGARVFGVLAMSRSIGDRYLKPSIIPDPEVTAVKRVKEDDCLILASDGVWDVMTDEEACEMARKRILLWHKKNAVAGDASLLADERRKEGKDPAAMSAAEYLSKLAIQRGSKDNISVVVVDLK
| Substitution | relative binding score [%] |
| --- | --- |
| E38M | 27.4 |
| E128Q | 101 |
| T119C | 82.1 |
| R88K | 84.7 |
| A175K | 78.8 |
| E129F | 88.2 |
| D97V | 91.2 |
| Q2F | 91.4 |
| P37A | 77.7 |
| P36R | 81.2 |

Further values, each from its own experiment
| Molecule | target | assay | system | setting | how to read | quantity | value |
| --- | --- | --- | --- | --- | --- | --- | --- |
| PhoQ, residues 284 288 289 292 302 303 SSCLAV | PhoP, residues 12 14 15 18 19 HEGLL (Escherichia coli, UniProt P23836) | Sort-seq, refers to: YFP reporter | E. coli | PhoQ-PhoP variant library, together with: 10 µM Mg2+ | baseline: high Mg2+ state, higher = stronger signaling | fold induction | 1.83 |

For quick reference, copied from above (set 1):
| Substitution | normalised enrichment score |
| --- | --- |
| GSAKRRAFGEDPP [L7A] | -0.235 |
| GSAKRRLFGEDMP [P12M] | 6.27 |
